Published values gathered from unrelated publications.
Every numbered part comes from another study and shows a few of its results, in no order. Changes are numbered by the printed parent chain.

Study 1 — method: aptamer microarray, sandwich; molecule type: DNA with 2'F-ANA; sample: in vitro; concentration: 200 nM; with: Cy3 exosite-II aptamer, 400 nM; direction: higher = stronger binding; quantity: mean fluorescence intensity; sequence: GGTTGGTGTGGTTGG
Target: Prothrombin, mature alpha-thrombin (F2, Homo sapiens, UniProt P00734)
Notes: whole 15-mer aptamer, many near background
2'F-ANA at 1 2 3 5 9 10: 52.1 a.u.
2'F-ANA at 2 4 8 11 13 14: 106 a.u.
2'F-ANA at 1 2 4 7 10 12 14 15: 46.1 a.u.
2'F-ANA at 1 2 3 9 10: 67.7 a.u.
2'F-ANA at 5 7 8 10 12 13 14: 43.8 a.u.
2'F-ANA at 3 5 7 8 9 10 11 12 13: 66.9 a.u.
2'F-ANA at 3 4 9 11 12 14: 366 a.u.
2'F-ANA at 2 3 4 5 6 7 8 9 10 13 14 15: 53.9 a.u.

Study 2 — method: RNA Bind-n-Seq; molecule type: RNA; sample: in vitro; concentration: 20 nM; notes: 6-mer, flanks averaged, single round; with: 150 mM LiCl; baseline: input library; direction: higher = stronger binding; quantity: 6-mer enrichment (R)
Target: TAR DNA-binding protein 43, full length, His tag (TARDBP, Homo sapiens, UniProt Q13148, residues 1-414)
CGAUUA: 0.818
ACCCCU: 1.1
UUCUCC: 0.993
CAGCUU: 0.869
CUACCC: 0.981
GGCGGU: 1.16
UCGGUC: 0.883
CAGACC: 0.833

Study 3 — target: CREB3, bZIP domain (human); method: DHFR protein complementation; sample: yeast; baseline: wild-type JUN-FOS pair; direction: higher = stronger binding; quantity: binding fitness
Notes: single substitutions, most at no-binding floor
Parent: JUN, bZIP domain (human); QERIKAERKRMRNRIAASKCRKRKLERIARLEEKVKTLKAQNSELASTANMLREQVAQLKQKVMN; partner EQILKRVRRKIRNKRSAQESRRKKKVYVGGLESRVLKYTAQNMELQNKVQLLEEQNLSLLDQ
E54N: -1.5 natural log
Q55I: -1.55 natural log
L38M: -1.49 natural log
L52W: -1.53 natural log
Q55H: -1.54 natural log
T37H: -1.5 natural log
N42D: -1.52 natural log
L31D: -1.41 natural log

Mixed results
WLGWGHAWV  binding (HLA class I histocompatibility antigen, A alpha chain, allele A*80:01 (Homo sapiens, UniProt P04439); peptide-MHC binding; peptide; concentration not given): inactive

Some of these lines once more (study 3):
N42D: -1.52 natural log
L31D: -1.41 natural log
